Assay results collected from several papers.
Lines come from different studies, so protocols differ. “And” joins repeats or separate records; there may be more than shown.
Sequence of UniProt P42866 (whole entry, looked up): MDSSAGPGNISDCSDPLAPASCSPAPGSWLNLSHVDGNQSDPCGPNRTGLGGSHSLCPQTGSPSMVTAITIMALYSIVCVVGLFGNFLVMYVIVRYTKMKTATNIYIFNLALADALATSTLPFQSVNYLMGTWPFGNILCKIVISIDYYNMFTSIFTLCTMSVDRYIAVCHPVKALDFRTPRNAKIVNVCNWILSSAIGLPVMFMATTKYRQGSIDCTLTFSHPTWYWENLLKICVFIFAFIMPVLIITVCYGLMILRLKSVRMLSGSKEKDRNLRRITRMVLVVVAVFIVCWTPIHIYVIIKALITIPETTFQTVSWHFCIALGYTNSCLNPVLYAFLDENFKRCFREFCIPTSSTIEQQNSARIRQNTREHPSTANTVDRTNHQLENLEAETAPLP
Sequence of UniProt Q13237 (whole entry, looked up): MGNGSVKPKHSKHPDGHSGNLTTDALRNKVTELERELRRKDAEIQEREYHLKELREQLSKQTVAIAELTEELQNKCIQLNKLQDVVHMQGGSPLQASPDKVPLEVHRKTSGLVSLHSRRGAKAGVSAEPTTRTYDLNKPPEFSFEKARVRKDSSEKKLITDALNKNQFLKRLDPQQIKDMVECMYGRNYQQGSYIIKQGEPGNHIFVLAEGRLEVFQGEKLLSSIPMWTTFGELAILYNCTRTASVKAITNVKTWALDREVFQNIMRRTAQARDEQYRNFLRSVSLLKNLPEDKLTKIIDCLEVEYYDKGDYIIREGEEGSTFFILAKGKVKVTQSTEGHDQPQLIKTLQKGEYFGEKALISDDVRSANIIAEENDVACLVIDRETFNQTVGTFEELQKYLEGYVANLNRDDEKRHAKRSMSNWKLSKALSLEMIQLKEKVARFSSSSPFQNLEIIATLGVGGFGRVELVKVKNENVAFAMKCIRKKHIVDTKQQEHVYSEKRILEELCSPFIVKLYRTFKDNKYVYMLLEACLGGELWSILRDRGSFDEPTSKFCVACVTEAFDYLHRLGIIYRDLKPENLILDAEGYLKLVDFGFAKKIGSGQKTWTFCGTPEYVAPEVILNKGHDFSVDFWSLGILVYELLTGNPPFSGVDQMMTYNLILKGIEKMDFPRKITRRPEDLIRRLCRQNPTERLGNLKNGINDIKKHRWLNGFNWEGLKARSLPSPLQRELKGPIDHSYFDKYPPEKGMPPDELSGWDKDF
Sequence of UniProt Q9BXA5 (whole entry, looked up): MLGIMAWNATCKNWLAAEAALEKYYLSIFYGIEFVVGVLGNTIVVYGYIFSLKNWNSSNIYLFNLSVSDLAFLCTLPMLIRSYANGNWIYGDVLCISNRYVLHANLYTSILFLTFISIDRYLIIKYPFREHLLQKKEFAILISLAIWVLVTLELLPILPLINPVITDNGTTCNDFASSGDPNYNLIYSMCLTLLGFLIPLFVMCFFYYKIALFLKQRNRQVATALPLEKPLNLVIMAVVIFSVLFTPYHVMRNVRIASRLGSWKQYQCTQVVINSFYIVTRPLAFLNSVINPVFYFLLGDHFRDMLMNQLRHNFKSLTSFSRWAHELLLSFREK
Sequence of UniProt Q9ULK4 (whole entry, looked up): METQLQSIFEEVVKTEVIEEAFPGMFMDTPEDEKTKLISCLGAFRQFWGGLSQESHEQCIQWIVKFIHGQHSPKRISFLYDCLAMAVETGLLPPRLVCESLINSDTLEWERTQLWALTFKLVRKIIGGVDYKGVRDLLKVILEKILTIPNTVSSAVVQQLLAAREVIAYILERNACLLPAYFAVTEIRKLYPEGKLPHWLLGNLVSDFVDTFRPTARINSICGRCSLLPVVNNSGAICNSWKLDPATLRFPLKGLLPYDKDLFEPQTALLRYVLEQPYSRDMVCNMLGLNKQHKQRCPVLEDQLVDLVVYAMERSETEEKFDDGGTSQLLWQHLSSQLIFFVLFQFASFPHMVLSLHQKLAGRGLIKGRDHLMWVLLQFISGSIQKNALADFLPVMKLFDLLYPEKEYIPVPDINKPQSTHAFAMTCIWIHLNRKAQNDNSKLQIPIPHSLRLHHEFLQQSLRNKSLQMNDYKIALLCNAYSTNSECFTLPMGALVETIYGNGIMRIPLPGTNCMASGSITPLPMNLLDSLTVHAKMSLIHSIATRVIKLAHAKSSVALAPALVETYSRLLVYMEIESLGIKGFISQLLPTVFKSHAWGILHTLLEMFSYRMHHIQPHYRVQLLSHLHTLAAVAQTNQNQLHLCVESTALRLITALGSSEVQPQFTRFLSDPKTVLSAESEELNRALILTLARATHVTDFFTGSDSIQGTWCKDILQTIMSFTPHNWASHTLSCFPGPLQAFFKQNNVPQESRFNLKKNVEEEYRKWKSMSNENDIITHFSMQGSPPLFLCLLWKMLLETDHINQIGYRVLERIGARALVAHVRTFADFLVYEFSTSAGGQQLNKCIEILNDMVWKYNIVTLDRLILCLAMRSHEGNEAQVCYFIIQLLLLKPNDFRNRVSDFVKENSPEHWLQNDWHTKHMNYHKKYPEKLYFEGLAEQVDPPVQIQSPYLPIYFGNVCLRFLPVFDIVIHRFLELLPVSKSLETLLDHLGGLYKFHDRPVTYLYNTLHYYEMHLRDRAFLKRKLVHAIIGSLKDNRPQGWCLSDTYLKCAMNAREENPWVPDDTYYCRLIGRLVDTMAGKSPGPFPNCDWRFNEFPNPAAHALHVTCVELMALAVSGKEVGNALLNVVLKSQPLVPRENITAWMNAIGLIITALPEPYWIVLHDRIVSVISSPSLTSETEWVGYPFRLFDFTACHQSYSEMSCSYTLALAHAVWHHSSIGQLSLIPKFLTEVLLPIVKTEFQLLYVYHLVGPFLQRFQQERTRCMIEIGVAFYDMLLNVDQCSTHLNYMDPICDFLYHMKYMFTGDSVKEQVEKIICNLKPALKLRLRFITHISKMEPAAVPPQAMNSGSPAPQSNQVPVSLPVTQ
Sequence of UniProt Q13705 (whole entry, looked up): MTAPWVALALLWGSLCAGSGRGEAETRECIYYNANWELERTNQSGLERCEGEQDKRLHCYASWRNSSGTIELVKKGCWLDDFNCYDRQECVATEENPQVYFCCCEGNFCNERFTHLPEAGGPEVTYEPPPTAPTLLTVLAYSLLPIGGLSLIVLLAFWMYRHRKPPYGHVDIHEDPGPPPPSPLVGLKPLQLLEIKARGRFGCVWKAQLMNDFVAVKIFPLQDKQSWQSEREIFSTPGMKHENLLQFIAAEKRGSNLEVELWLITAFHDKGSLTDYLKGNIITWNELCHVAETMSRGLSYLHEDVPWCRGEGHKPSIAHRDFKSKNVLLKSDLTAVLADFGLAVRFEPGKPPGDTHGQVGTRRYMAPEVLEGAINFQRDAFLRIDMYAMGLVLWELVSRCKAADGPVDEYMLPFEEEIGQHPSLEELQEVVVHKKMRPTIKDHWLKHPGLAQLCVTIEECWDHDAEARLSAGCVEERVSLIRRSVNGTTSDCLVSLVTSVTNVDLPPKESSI
Sequence of UniProt Q99705 (whole entry, looked up): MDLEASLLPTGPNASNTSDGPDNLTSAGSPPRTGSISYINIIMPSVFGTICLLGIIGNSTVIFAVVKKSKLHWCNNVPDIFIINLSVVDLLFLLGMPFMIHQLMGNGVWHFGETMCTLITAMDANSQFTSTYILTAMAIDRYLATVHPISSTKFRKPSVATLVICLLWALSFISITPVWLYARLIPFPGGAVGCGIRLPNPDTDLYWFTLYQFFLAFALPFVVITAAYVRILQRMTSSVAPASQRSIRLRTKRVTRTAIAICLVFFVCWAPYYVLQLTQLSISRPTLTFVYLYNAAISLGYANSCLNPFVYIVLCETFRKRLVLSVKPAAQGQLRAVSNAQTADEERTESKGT
Sequence of UniProt P25311 (whole entry, looked up): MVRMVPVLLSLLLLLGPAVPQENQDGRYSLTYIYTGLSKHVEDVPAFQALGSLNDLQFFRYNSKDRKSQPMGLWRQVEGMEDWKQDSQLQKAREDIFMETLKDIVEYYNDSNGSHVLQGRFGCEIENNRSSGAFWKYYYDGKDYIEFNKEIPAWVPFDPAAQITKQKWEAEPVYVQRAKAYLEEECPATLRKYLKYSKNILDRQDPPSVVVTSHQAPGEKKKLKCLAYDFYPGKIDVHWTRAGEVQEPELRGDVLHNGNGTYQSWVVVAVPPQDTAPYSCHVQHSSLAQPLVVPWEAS
Sequence of UniProt Q16566 (whole entry, looked up): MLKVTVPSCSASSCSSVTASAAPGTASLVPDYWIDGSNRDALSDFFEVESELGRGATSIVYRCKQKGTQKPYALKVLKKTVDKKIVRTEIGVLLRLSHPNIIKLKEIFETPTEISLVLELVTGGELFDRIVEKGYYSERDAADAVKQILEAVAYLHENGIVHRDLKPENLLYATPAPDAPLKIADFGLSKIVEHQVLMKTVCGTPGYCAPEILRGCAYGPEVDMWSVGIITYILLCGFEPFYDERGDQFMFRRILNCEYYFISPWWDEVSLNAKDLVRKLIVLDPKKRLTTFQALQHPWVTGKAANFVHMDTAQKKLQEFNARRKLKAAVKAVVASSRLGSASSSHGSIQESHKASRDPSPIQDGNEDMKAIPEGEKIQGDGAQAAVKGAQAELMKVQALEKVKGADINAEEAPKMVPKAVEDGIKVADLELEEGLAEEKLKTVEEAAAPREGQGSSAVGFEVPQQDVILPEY
Sequence of UniProt O14733 (whole entry, looked up): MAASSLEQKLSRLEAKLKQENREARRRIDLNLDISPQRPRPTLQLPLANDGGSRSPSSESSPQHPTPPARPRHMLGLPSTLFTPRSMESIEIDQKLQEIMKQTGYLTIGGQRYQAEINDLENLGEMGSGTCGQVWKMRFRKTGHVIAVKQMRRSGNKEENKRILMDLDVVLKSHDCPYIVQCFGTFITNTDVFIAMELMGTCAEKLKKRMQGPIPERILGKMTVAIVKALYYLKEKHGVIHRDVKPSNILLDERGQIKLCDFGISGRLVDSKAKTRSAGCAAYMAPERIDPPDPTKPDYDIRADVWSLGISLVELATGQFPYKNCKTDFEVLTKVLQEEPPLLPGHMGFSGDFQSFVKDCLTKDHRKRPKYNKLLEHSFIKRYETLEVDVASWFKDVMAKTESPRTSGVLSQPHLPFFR

O=C(Nc1cnccc1Cl)N1CCN(Cc2ccc3c(c2)OC(F)(F)O3)CC1 gave an inhibition of 3% (CAMK4 (Homo sapiens, UniProt Q16566); enzyme activity, inhibitor; 10 µM, together with: autocamtide-2).
Under “surface TFRC expression”, CC[C@@H](C)[C@@H](NC(=O)[C@@H](Cc1ccc(O)cc1)NC(=O)[C@H]1CCCN1C(=O)[C@@H](CCCNC(=N)N)NC(=O)[C@H](N)Cc1c[nH]cn1)C(=O)N[C@H](C)C(=O)N[C@H](Cc1c[nH]cn1)C(=O)N[C@H](CCCNC(=N)N)C(=O)N[C@H](CCCCNC(=O)c1cccc(S(=O)(=O)F)c1)C(=O)N[C@H](Cc1ccc(O)cc1)C(=O)N[C@H](CO)C(=O)N[C@H](Cc1ccccc1)C(N)=O is recorded as 0.898 (Transferrin receptor protein 1 (Tfrc, Mus musculus, UniProt Q62351); flow cytometry; MC-38; 2 h, unit not given; baseline: 0 h).
The inhibition of COc1ccc(N2C(=O)N(c3c(C)cccc3Cl)Cc3cnc(Nc4ccc(C5CCN(C)CC5)cc4OC)nc32)nc1 is reported as -6% (MAP2K7 (Homo sapiens, UniProt O14733); kinase activity; 0.5 µM).
CN1CCN(c2cc(-c3ccncc3)c(-c3ccc4ccccc4c3)nn2)CC1 has an activation of 4.6% (MCHR1 (Homo sapiens, UniProt Q99705); agonist, FLIPR; 12.5 µM).
Nc1ncc(-c2nc(N3CCOCC3)nc(N3CCOCC3)n2)c(C(F)F)n1 has a remaining binding of 100% (TGFBR1 (Homo sapiens, UniProt P36897); KINOMEscan; 10 µM).
The inhibition of COc1cc(Nc2ncc(F)c(Nc3ccc4c(n3)NC(=O)C(C)(C)O4)n2)cc(OC)c1OC is reported as 0% (ACVR2B (Homo sapiens, UniProt Q13705); KINOMEscan; 10 µM).
CN(C(=O)n1cnc(-c2ccc[n+]([O-])c2)c1)C1CCCCC1 has an inhibition of 0% (CCR1 (Homo sapiens, UniProt P32246); radioligand binding, inhibitor; 50 µM).
COc1cc(N)c(Cl)cc1C(=O)NC1CN2CCC1CC2 (stereo not shown): “log2 fold change” 0.278 (SUCNR1 (Homo sapiens, UniProt Q9BXA5); β-arrestin recruitment, TANGO luminescence; concentration not given; baseline: basal luminescence).
O=C(c1ccc(Cl)cc1)N1CCN2C(=O)N(OC(=O)N3CCOc4ccccc43)C(=O)C2C1 (stereo not shown): “mean protein ratio” 1.11 (Zinc-alpha-2-glycoprotein (AZGP1, Homo sapiens, UniProt P25311); MS-based ABPP; SW-620 conditioned medium; 10 µM; baseline: compound over DMSO, lower = more inhibition).
With [2H]c1c([2H])c([C@]2([2H])CCCN2C(=O)C(C)(C)Oc2ccc3cn[nH]c3c2)c([2H])c([2H])c1C([2H])([2H])[2H] the remaining binding was 91% (PRKG2 (Homo sapiens, UniProt Q13237); KINOMEscan; 1 µM; baseline: DMSO control).
The inhibition of O=C(Nc1cccnn1)N1CCC(=Cc2cccc(Oc3ccc(C(F)(F)F)cn3)c2)CC1 is reported as 13% (AMPA receptor, rat; binding; 50 µM, together with: [3H]AMPA).
With C[C@H]1CN(c2n[nH]c3nc(N[C@H]4CC[C@H](NS(=O)(=O)CCC(F)(F)F)CC4)ncc23)CCO1 the relative abundance was 1.02 (MED23 (Homo sapiens, UniProt Q9ULK4); inhibitor, Kinobeads competition profiling; 0.032 µM; baseline: vehicle).
C[C@@H](NC(=O)[C@@H](N)Cc1ccc(O)cc1)C(=O)NCC(=O)N(C)[C@@H](Cc1ccccc1)C(=O)NCCO gave a GTPγS binding of 33.7% and 39.7% and 35.8% and 29.6% and 40.9% and 39.3% and 37.1% and 29.3% (Oprm1 (Mus musculus, UniProt P42866); agonist; mouse spinal cord membranes; 3.16 µM; baseline: baseline).

A few entries again:
With C[C@H]1CN(c2n[nH]c3nc(N[C@H]4CC[C@H](NS(=O)(=O)CCC(F)(F)F)CC4)ncc23)CCO1 the relative abundance was 1.02 (MED23 (Homo sapiens, UniProt Q9ULK4); inhibitor, Kinobeads competition profiling; 0.032 µM; baseline: vehicle).
